Results from different studies.
Lines come from different studies, so protocols differ. Several values in a cell are separate wells, animals, samples, runs or records. ± gives the spread as reported.

Structure (SMILES) | assay | system | setting | how to read | quantity | result
NC12CNCCNCC(NCc3ccc(CNC(=O)CCCC(=O)NCc4ccc(-c5nncnn5)cc4)cc3)(CNCCNC1)CNCCNC2.[64Cu+2] |  | athymic nude mice SW1222 xenograft, blood | 12 h post injection, 24 h accumulation interval, with: huA33-TCO pretargeting |  | tissue uptake | 2.2 %ID/g and 2.19 %ID/g
O=C([O-])CN1CCN(CC(=O)[O-])CCN(CC(=O)NCCc2ccc3c(c2)C2C=CCC2C(c2cc4c(cc2Br)OCO4)N3)CCN(CC(=O)[O-])CC1.[111In+3] (centres unmarked) |  | mice with Hec50 tumour xenograft, mammary gland | 0.5 h |  | tissue uptake | 1.16 ± 0.32 %ID/g
O=C([O-])CN1CCN(CC(=O)[O-])CCN(CC(=O)[O-])CCN(CC(=O)[O-])CC1.[64Cu+2] |  | healthy athymic nude mice, large intestine | intravenous, 1 h |  | tissue uptake | 0.37 %ID/g
CCCC[C@H](NC(=O)CNC(=O)CNC(=O)CN1CCN(CC(=O)O)CCN(CC(=O)O)CCN(CC(=O)O)CC1)C(=O)N[C@H]1CC(=O)NCCCC[C@@H](C(N)=O)NC(=O)[C@H](Cc2c[nH]c3ccccc23)NC(=O)[C@H](CCCNC(=N)N)NC(=O)[C@@H](Cc2ccccc2)NC(=O)[C@H](Cc2c[nH]cn2)NC1=O [gallium-67 labelled] |  | female C57 mice, B16/F1 melanoma, blood | intravenous, 0.037 MBq, 0.5 h |  | tissue uptake | 3.33 ± 1.08 %ID/g
CC(C)[C@H](NC(=O)[C@@H]1CCCN1C(=O)[C@H](CCCNC(=N)N)NC(=O)[C@H](CS)NC(=O)[C@H](Cc1c[nH]c2ccccc12)NC(=O)[C@H](CCCNC(=N)N)NC(=O)[C@@H](Cc1ccccc1)NC(=O)[C@H](Cc1c[nH]cn1)NC(=O)[C@H](CCC(=O)O)NC(=O)[C@H](CS)NC(=O)[C@H](CS)NC(=O)CNC(=O)[C@@H]1CC(=O)N[C@@H](CCCNC(=N)N)C(=O)NCC(=O)N[C@@H](CC(=O)O)C(=O)N[C@H](Cc2ccc(O)cc2)C(=O)N1)C(N)=O [technetium-99m labelled] |  | C57 mice B16/F1 melanoma female, heart | iv, 2 h, with: NDP-MSH 10 µg co-injected |  | tissue uptake | 1.36 ± 1.41 %ID/g
CCCC[C@@H]1NC(=O)[C@@H](NC(=O)[C@H](CCC(=O)O)NC(=O)CNC(=O)CN2CCN(CC(=O)O)CCN(CC(=O)O)CCN(CC(=O)O)CC2)CCCCNC(=O)C[C@@H](C(N)=O)NC(=O)[C@H](C(C)C)NC(=O)[C@@H]2CCCN2C(=O)[C@H](CCCNC(=N)N)NC(=O)CNC(=O)[C@H](Cc2c[nH]c3ccccc23)NC(=O)[C@H](CCCNC(=N)N)NC(=O)[C@@H](Cc2ccccc2)NC(=O)[C@H](Cc2c[nH]cn2)NC(=O)[C@H](CCC(=O)O)NC1=O [gallium-67 labelled] |  | C57 mice with B16/F1 melanoma, lung | intravenous, 2 h |  | tissue uptake | 0.02 ± 0.02 %ID/g
CN1C(=O)[C@@H](Cc2ccc(O)c(I)c2)NC(=O)CNC(=O)[C@H](Cc2ccc3ccccc3c2)NC(=O)[C@H](CCCNC(=N)N)NC(=O)[C@H]1CCCNC(=O)c1ccc(CNC(=O)CN2CCN(CC(=O)O)CCN(CC(=O)O)CCN(CC(=O)O)CC2)cc1 [lutetium-177 labelled] | refers to: 177Lu radioactivity | female CB-17 SCID mice, Daudi xenograft, adrenals | intravenous, 0.16 nmol per mouse, 96 h |  | tissue uptake | 0.48 ± 0.03 %ID/g
N=C(N)NCCC[C@H](NC(=O)CON=C[C@H](F)[C@@H](O)[C@H](O)[C@H](O)CO)C(=O)NCC(=O)N[C@@H](CC(=O)O)C(=O)O [fluorine-18 labelled] |  | nude mice, U-87 MG xenograft | intravenous, 2 h | reference: tumour over blood | tissue ratio | 13.3 ± 1.05

Excerpt of the above:
Structure (SMILES) | assay | system | setting | how to read | quantity | result
NC12CNCCNCC(NCc3ccc(CNC(=O)CCCC(=O)NCc4ccc(-c5nncnn5)cc4)cc3)(CNCCNC1)CNCCNC2.[64Cu+2] |  | athymic nude mice SW1222 xenograft, blood | 12 h post injection, 24 h accumulation interval, with: huA33-TCO pretargeting |  | tissue uptake | 2.2 %ID/g and 2.19 %ID/g
